Assay results gathered from unrelated publications.
Compare with care: the assays were run in different laboratories. ± marks the error that the study gave.
PKG: cGMP-dependent protein kinase (PKG, Plasmodium falciparum, UniProt Q8I719)
OPRL1: Nociceptin receptor (OPRL1, Homo sapiens, UniProt P41146)

Sequences of proteins named here, by UniProt entry; tags and fusion partners are left off. A line that says so, or that is headed by a name, gives the form on record, which may keep a tag or linker. Residues count along the entry.
UniProt Q8I719, whole entry: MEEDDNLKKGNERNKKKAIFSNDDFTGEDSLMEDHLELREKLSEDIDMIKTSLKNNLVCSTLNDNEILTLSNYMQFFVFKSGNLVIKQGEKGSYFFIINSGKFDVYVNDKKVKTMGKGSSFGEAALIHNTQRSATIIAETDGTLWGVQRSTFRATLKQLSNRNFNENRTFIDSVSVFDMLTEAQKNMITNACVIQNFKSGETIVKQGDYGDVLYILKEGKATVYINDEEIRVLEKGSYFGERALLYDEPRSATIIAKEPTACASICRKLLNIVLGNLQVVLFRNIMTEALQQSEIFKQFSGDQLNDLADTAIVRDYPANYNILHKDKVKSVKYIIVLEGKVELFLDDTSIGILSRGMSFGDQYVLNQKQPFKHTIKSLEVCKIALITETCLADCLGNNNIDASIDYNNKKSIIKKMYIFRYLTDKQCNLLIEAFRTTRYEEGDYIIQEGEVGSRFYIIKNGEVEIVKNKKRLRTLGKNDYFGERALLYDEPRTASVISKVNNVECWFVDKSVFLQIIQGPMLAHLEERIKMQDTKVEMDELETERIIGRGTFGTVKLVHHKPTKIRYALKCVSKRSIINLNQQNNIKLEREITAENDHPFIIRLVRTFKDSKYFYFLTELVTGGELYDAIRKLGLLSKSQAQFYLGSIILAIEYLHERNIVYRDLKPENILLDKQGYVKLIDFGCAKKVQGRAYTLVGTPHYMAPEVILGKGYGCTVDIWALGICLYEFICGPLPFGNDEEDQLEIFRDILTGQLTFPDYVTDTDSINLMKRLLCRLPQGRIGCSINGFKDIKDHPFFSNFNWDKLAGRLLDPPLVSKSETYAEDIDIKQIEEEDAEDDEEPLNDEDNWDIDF
UniProt Q8I719, whole entry T618Q: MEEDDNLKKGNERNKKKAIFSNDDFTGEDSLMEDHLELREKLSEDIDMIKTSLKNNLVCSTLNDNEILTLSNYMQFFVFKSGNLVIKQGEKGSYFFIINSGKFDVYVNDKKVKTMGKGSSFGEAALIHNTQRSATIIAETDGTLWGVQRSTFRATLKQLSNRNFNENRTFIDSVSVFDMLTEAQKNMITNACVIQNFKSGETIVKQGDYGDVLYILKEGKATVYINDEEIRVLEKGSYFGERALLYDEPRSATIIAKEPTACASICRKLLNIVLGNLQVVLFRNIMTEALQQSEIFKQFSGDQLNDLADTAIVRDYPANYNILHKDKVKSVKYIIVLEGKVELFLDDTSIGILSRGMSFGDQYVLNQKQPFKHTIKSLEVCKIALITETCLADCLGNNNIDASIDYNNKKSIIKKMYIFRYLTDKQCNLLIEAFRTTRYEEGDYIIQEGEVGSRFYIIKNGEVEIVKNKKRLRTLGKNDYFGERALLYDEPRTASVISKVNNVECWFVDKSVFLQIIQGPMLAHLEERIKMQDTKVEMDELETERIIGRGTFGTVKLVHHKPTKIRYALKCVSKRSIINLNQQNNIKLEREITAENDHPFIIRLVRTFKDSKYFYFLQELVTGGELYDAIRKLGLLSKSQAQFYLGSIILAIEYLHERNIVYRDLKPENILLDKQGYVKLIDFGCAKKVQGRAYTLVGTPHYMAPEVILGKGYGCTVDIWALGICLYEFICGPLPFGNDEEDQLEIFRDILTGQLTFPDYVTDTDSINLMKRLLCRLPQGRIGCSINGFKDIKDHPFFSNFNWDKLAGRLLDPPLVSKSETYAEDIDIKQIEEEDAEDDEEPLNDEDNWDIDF
UniProt P41146, whole entry: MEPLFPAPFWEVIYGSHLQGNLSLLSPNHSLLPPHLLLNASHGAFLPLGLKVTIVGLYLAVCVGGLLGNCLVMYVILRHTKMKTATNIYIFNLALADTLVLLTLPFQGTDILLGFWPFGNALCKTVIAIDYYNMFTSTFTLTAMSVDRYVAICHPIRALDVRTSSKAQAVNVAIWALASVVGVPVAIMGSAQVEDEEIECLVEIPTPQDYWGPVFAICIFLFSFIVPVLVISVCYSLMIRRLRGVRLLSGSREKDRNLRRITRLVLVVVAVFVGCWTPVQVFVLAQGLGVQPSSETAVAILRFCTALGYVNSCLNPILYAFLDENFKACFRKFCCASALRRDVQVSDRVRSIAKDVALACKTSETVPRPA
UniProt P08510, 1-655 with tags or gaps DEL6-46: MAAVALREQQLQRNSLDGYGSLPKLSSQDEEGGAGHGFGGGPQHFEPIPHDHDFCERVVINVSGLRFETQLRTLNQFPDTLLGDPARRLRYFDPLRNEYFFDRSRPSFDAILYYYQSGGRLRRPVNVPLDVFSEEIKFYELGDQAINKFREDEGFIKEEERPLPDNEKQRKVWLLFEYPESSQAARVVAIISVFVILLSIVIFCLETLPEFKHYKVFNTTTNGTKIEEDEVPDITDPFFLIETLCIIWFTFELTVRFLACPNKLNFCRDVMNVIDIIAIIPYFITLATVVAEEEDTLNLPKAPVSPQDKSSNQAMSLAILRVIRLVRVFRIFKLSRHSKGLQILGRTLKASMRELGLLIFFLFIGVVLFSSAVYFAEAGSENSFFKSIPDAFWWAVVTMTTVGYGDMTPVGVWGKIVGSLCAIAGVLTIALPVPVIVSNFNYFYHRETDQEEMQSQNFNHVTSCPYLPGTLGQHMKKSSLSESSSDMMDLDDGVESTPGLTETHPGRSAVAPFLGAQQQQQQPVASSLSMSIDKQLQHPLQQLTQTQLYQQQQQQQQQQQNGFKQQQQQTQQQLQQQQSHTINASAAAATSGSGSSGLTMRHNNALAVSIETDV
UniProt Q9VNB5, whole entry: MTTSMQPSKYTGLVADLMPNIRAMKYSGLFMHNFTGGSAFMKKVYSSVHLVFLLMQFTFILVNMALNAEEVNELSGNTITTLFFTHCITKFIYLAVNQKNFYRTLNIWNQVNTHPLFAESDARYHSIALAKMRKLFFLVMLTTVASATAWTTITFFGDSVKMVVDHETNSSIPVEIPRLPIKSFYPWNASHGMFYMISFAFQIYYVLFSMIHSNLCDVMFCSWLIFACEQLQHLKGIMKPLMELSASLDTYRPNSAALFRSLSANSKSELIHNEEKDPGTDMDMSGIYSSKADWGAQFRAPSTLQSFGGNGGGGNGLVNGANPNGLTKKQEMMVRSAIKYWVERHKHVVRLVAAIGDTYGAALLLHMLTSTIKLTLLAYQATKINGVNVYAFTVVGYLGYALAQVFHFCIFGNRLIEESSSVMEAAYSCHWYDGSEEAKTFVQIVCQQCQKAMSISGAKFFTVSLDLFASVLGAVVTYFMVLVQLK
UniProt Q9H9B1, 1126-1243 limits assumed: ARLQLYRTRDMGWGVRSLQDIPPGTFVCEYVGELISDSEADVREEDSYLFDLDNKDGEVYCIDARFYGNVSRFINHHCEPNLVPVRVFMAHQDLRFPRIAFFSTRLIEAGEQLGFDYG
UniProt P32121, whole entry partner: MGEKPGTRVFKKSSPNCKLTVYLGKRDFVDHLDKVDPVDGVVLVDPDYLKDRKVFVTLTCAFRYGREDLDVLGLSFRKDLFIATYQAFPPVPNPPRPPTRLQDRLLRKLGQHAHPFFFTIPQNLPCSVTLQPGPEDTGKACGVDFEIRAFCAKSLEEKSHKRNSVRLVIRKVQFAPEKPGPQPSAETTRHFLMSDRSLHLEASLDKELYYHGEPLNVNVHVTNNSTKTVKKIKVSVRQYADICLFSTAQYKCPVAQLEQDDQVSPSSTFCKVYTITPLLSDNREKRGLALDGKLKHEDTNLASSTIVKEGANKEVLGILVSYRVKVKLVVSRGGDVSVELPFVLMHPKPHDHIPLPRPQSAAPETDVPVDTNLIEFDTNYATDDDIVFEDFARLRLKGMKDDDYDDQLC

Structure (SMILES) | tested on | assay | system | setting | how to read | quantity | value
CC[C@H](C)[C@H](NC(=O)[C@H](C)NC(=O)[C@H](CCC(=O)O)NC(=O)[C@H](CCC(=O)O)NC(=O)[C@H](CC(C)C)NC(=O)[C@H](CCCCN)NC(=O)[C@H](CCCCN)NC(=O)[C@H](CCSC)NC(=O)[C@H](CCC(=O)O)NC(=O)[C@H](Cc1ccc(O)cc1)NC(=O)[C@H](CCC(=O)O)NC(=O)[C@H](CC(C)C)NC(=O)[C@H](CC(=O)O)NC(=O)[C@H](CC(C)C)NC(=O)[C@H](Cc1ccccc1)NC(=O)[C@H](Cc1ccc(O)cc1)NC(=O)[C@@H](NC(=O)[C@H](CC(N)=O)NC(=O)[C@@H](NC(=O)[C@H](CCC(N)=O)NC(=O)[C@H](CC(=O)O)NC(=O)[C@H](CC(C)C)NC(=O)[C@@H](N)CO)[C@@H](C)CC)C(C)C)C(=O)N[C@@H](CCCCN)C(=O)N[C@@H](CCCCN)C(=O)N[C@@H](CC(C)C)C(=O)N[C@@H](CCC(=O)O)C(=O)N[C@@H](CCC(=O)O)C(=O)N[C@H](C(=O)N[C@@H](Cc1ccc(O)cc1)C(=O)N[C@H](C(=O)N[C@@H](CC(=O)O)C(=O)N[C@@H](CC(C)C)C(=O)N[C@@H](CCCCN)C(=O)N[C@@H](CCC(=O)O)C(=O)N[C@@H](CC(C)C)C(=O)O)[C@@H](C)CC)[C@@H](C)O | SARS-CoV-2 EG.5.1 pseudovirus | pseudovirus infection, inhibitor, luciferase | Caco-2 | 24 h, dual mutations | – | IC50 | 271 nM
CC[C@H](C)[C@@H]1NC(=O)[C@H](CCCNC(=N)N)NC(=O)[C@@H](N)CSSC[C@@H]2NC(=O)[C@@H]3CSSC[C@@H](C(=O)N[C@H](C(=O)O)C(C)C)NC(=O)[C@H](CCCCN)NC(=O)[C@H](CC(N)=O)NC(=O)[C@H](Cc4ccccc4)NC(=O)[C@H](CCCNC(=N)N)NC(=O)[C@H](CC(N)=O)NC(=O)[C@H](CSSC[C@H](NC(=O)[C@H](CCCCN)NC(=O)[C@H](CCC(N)=O)NC(=O)[C@H](CC(N)=O)NC(=O)[C@@H]4C[C@@H](O)CN4C1=O)C(=O)N[C@@H](Cc1ccccc1)C(=O)N[C@@H](CCC(N)=O)C(=O)N[C@@H](Cc1c[nH]cn1)C(=O)N[C@@H](CC(C)C)C(=O)N[C@@H](CC(=O)O)C(=O)N[C@@H](CC(=O)O)C(=O)N3)NC(=O)[C@H](CCCCN)NC(=O)[C@H](CCCNC(=N)N)NC(=O)[C@H](CO)NC2=O | Sh (Drosophila melanogaster, UniProt P08510, del6-46) | potassium current, two-electrode voltage clamp | Xenopus oocytes | external K 100 mM, zero voltage | – | koff | 22 ± 2 s⁻¹
CCN(CC)Cc1onc(-c2cccc(Cl)c2)c1-c1ccnc(N[C@@H]2CCN(C(=O)c3ccn(C)n3)C2)n1 | PKG | kinase activity, inhibitor, IMAP | – | 10 µM | – | inhibition | 98.4 ± 1.8%
CC[C@H](C)[C@H](NC(=O)[C@H](C)NC(=O)[C@H](CCC(=O)O)NC(=O)[C@H](CCC(=O)O)NC(=O)[C@H](CC(C)C)NC(=O)[C@H](CCCCN)NC(=O)[C@H](CCCCN)NC(=O)[C@H](CCSC)NC(=O)[C@H](CCC(=O)O)NC(=O)[C@H](Cc1ccc(O)cc1)NC(=O)[C@H](CCC(=O)O)NC(=O)[C@H](CC(C)C)NC(=O)[C@H](CC(=O)O)NC(=O)[C@H](CC(C)C)NC(=O)[C@H](Cc1ccccc1)NC(=O)[C@@H](NC(=O)[C@@H](NC(=O)[C@H](CC(N)=O)NC(=O)[C@@H](NC(=O)[C@H](CCC(N)=O)NC(=O)[C@H](CC(=O)O)NC(=O)[C@H](CC(C)C)NC(=O)[C@@H](N)CO)[C@@H](C)CC)C(C)C)[C@@H](C)O)C(=O)N[C@@H](CCCCN)C(=O)N[C@@H](CCCCN)C(=O)N[C@@H](CC(C)C)C(=O)N[C@@H](CCC(=O)O)C(=O)N[C@@H](CCC(=O)O)C(=O)N[C@@H](CO)C(=O)N[C@@H](Cc1ccc(O)cc1)C(=O)N[C@H](C(=O)N[C@@H](CC(=O)O)C(=O)N[C@@H](CC(C)C)C(=O)N[C@@H](CCCCN)C(=O)N[C@@H](CCC(=O)O)C(=O)N[C@@H](CC(C)C)C(=O)O)[C@@H](C)CC | SARS-CoV-2 EG.5.1 pseudovirus | pseudovirus infection, inhibitor, luciferase | Caco-2 | 24 h | – | IC50 | 288 nM
CCc1ccc2c(c1)CCN2C(=O)CSc1nnc(-c2ccncc2)n1C1CC1 | Orco (Drosophila melanogaster, UniProt Q9VNB5) | calcium mobilization, agonist | HEK293 expressing Drosophila Orco | – | baseline: VUAA1 | efficacy | 113%
O=C1Cc2ccccc2N1C1CCN([C@@H]2CC[C@H]3CCCc4cccc2c43)CC1 | OPRL1 | G protein interaction, BRET | HEK293 membranes | concentration not given, unit not given | baseline: N/OFQ maximal effect | intrinsic activity | 1.01 ± 0.03
CS(=O)(=O)Cc1onc(-c2cccc(Cl)c2)c1-c1ccnc(N[C@@H]2CCN(C(=O)c3nccs3)C2)n1 | PKG | kinase activity, inhibitor, IMAP | – | 10 µM | – | inhibition | 102%
CNC(=O)CC1C(=O)N(C2CCN([C@H]3CC[C@@H](C(C)C)CC3)CC2)c2ccccc21 (stereo partly drawn) | OPRL1 | G protein activation, GTPγS binding | CHO membranes | – | baseline: compound over N/OFQ EC50 | concentration ratio | 1.2
COc1cc2c(NC3CCN(Cc4ccccc4)CC3)nc(NCCCN(C)C)nc2cc1OCCCCCN | Histone-lysine N-methyltransferase EHMT1, SET domain (EHMT1, Homo sapiens, UniProt Q9H9B1) | enzyme activity | – | – | baseline: apparent Ki KDM7A over EHMT1 | selectivity ratio | ~2500
CC(C)[C@H]1CC[C@@H](N2CCC3(CC2)C(=O)NCN3c2ccccc2)CC1 | OPRL1 | β-arrestin recruitment, BRET | HEK293 | concentration not given, unit not given, added: β-arrestin 2 | baseline: N/OFQ maximal effect | intrinsic activity | 0.43 ± 0.04
CCCN(C)Cc1onc(-c2cccc(Cl)c2)c1-c1ccnc(N[C@@H]2CCN(C(=O)c3ccn(C)n3)C2)n1 | cGMP-dependent protein kinase (PKG, Plasmodium falciparum, UniProt Q8I719, T618Q) | kinase activity, inhibitor, IMAP | – | 10 µM, gatekeeper mutant | – | inhibition | 6.5 ± 8%
Cc1ccc(S(=O)(=O)Nc2cccc(C(=O)NC3CCN(c4ncnc5[nH]cnc45)CC3)c2)cc1 | Replicase polyprotein 1ab, nsp14 ExoN with nsp10 (rep, Severe acute respiratory syndrome coronavirus 2, UniProt P0DTD1) | ExoN activity | – | 0.01221 µM | – | inhibition | 17.1%

Some of these lines once more:
Structure (SMILES) | tested on | assay | system | setting | how to read | quantity | value
Cc1ccc(S(=O)(=O)Nc2cccc(C(=O)NC3CCN(c4ncnc5[nH]cnc45)CC3)c2)cc1 | Replicase polyprotein 1ab, nsp14 ExoN with nsp10 (rep, Severe acute respiratory syndrome coronavirus 2, UniProt P0DTD1) | ExoN activity | – | 0.01221 µM | – | inhibition | 17.1%
